# Experimental data pooled from the literature.
# Compare with care: the assays were run in different laboratories. ± gives the spread as reported. Square brackets hold non-standard residues; d marks the D form. Ends that are not written are not given here.
# KDM5A: KDM5A 287-347 (Homo sapiens, UniProt P29375)
# Chain of UniProt P29375 (whole entry, looked up): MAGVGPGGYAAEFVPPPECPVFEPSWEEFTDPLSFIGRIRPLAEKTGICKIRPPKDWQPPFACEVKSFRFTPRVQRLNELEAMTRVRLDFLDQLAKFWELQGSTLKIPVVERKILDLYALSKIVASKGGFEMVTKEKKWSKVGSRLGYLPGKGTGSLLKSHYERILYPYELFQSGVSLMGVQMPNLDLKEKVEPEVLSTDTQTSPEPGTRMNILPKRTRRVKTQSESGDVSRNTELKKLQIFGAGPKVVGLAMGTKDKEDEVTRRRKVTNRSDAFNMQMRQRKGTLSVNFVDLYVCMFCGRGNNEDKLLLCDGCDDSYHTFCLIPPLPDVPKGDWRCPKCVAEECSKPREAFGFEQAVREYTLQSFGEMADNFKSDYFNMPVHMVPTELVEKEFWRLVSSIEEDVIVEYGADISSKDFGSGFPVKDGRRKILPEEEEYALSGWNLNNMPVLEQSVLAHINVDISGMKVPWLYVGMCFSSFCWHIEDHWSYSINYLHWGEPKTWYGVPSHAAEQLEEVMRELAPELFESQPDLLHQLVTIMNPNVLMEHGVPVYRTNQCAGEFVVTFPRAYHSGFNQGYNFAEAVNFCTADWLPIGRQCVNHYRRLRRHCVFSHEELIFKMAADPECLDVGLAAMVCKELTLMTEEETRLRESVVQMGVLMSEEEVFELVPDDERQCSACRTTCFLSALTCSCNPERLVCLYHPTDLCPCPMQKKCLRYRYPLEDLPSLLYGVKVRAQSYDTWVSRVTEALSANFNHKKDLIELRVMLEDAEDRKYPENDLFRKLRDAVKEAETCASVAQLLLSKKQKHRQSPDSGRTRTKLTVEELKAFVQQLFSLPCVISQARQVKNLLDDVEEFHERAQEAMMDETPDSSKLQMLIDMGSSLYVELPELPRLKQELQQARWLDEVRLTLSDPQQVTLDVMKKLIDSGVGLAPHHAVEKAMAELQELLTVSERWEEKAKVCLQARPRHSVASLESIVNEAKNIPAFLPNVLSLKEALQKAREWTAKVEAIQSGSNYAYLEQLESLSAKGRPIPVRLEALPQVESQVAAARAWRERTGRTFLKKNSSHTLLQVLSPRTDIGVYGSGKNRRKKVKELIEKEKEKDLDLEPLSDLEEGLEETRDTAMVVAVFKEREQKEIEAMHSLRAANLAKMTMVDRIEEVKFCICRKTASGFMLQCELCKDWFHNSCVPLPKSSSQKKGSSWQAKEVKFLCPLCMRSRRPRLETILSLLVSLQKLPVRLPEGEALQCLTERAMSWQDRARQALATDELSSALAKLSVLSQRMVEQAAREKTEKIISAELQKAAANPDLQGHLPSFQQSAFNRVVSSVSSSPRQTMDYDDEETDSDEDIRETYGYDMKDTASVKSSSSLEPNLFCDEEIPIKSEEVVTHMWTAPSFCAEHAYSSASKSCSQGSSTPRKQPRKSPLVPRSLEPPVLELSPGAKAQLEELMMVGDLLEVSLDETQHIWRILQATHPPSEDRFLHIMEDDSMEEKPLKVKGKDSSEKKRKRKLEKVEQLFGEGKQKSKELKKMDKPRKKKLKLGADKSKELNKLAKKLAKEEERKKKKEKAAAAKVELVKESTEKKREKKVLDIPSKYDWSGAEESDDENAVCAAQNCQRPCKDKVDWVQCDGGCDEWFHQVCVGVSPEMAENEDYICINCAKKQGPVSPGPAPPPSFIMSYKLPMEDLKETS
# B1: XCL1 mature protein V21C/V59C/E4A (UniProt P47992); chain VGSAVSDKRTCVSLTTQRLPCSRIKTYTITEGSLRAVIFITKRGLKVCADPQATWVRDCVRSMDRKSNTRNNMIQTKPTGTQQSTNTAVTLTG
# B2: Ric8b 1-483 R75E (Mus musculus, UniProt Q80XE1); chain MDEERALYIVRAGEAGAIERVLRDYSDKHRATFKFESADEDKRKKLCEGIFKVLVKEVPTTCQVSCLEVLRILSEDKKILVPVTTKENMQILLRLAKLHESDDSLEKVSEFPVIVESLKCLCNIVFNSQMAQQLSLELNLAAKLCNLLRKCKDRKFINDIKCFDLRLLFVLSLLHTDIRSQLRYELQGLPLLTQILESAFSIKWTDEYESAIDHNGPPLSPQETDCAIEALKALFNVTVDSWKVHKESDSHQFRVMAAVLRHCLLIVGPTEDKTEELHSNAVNLLSNVPVSCLDVLICPLTHEETAQEAATLDELPSDKTTEKDTALKNSTMVYNGMNMEAIHVLLNFMEKRIDKGSSYREGLTPVLSLLTECSRAHRNIRKFLKDQVLPPLRDVTNRPEVGSTVRNKLVRLMTHVDLGVKQIAAEFLFVLCKERVDSLLKYTGYGNAAGLLAARGLLAGGRGDNWYSEDEDTDTEEYKNAKP
# B3: addA D1172A (Bacillus subtilis, UniProt P23478); sequence looked up; chain MNIPKPADSTWTDDQWNAIVSTGQDILVAAAAGSGKTAVLVERMIRKITAEENPIDVDRLLVVTFTNASAAEMKHRIAEALEKELVQRPGSLHIRRQLSLLNRASISTLHSFCLQVLKKYYYLIDLDPGFRIADQTEGELIGDEVLDELFEDEYAKGEKAFFELVDRYTTDRHDLDLQFLVKQVYEYSRSHPNPEAWLESFVHLYDVSEKSAIEELPFYQYVKEDIAMVLNGAKEKLLRALELTKAPGGPAPRADNFLDDLAQIDELIQHQDDFSELYKRVPAVSFKRAKAVKGDEFDPALLDEATDLRNGAKKLLEKLKTDYFTRSPEQHLKSLAEMKPVIETLVQLVISYGKRFEAAKQEKSIIDFSDLEHYCLAILTAENDKGEREPSEAARFYQEQFHEVLVDEYQDTNLVQESILQLVTSGPEETGNLFMVGDVKQSIYRFRLAEPLLFLSKYKRFTESGEGTGRKIDLNKNFRSRADILDSTNFLFKQLMGGKIGEVDYDEQAELKLGAAYPDNDETETELLLIDNAEDTDASEEAEELETVQFEAKAIAKEIRKLISSPFKVYDGKKKTHRNIQYRDIVILLRSMPWAPQIMEELRAQGIPVYANLTSGYFEAVEVAVALSVLKVIDNPYQDIPLASVLRSPIVGADENELSLIRLENKKAPYYEAMKDYLAAGDRSDELYQKLNTFYGHLQKWRAFSKNHSVSELIWEVYRDTKYMDYVGGMPGGKQRQANLRVLYDRARQYESTAFRGLFRFLRFIERMQERGDDLGTARALSEQEDVVRLMTIHSSKGLEFPVVFVAGLGRNFNMMDLNKSYLLDKELGFGTKYIHPQLRISYPTLPLIAMKKKMRRELLSEELRVLYVALTRAKEKLFLIGSCKDHQKQLAKWQASASQTDWLLPEFDRYQARTYLDFIGPALARHRDLGDLAGVPAHADISGHPARFAVQMIHSYDLLDDDLEERMEEKSERLEAIRRGEPVPGSFAFDEKAREQLSWTYPHQEVTQIRTKQSVSEIKRKREYEDEYSGRAPVKPADGSILYRRPAFMMKKGLTAAEKGTAMHTVMQHIPLSHVPSIEEAEQTVHRLYEKELLTEEQKDAIDIEEIVQFFHTEIGGQLIGAKWKDREIPFSLALPAKEIYPDAHEADEPLLVQGIIDCLYETEDGLYLLAYKSDRIEGKFQHGFEGAAPILKKRYETQIQLYTKAVEQIAKTKVKGCALYFFDGGHILTL
# B4: mutL R531A (Escherichia coli, UniProt P23367); chain MPIQVLPPQLANQIAAGEVVERPASVVKELVENSLDAGATRIDIDIERGGAKLIRIRDNGCGIKKDELALALARHATSKIASLDDLEAIISLGFRGEALASISSVSRLTLTSRTAEQQEAWQAYAEGRDMNVTVKPAAHPVGTTLEVLDLFYNTPARRKFLRTEKTEFNHIDEIIRRIALARFDVTINLSHNGKIVRQYRAVPEGGQKERRLGAICGTAFLEQALAIEWQHGDLTLRGWVADPNHTTPALAEIQYCYVNGRMMRDRLINHAIRQACEDKLGADQQPAFVLYLEIDPHQVDVNVHPAKHEVRFHQSRLVHDFIYQGVLSVLQQQLETPLPLDDEPQPAPRSIPENRVAAGRNHFAEPAAREPVAPRYTPAPASGSRPAAPWPNAQPGYQKQQGEVYRQLLQTPAPMQKLKAPEPQEPALAANSQSFGRVLTIVHSDCALLERDGNISLLSLPVAERWLRQAQLTPGEAPVCAQPLLIPLRLKVSAEEKSALEKAQSALAELGIDFQSDAQHVTIRAVPLPLAQQNLQILIPELIGYLAKQSVFEPGNIAQWIARNLMSEHAQWSMAQAITLLADVERLCPQLVKTPPGGLLQSVDLHPAIKALKDE
# B5: IGFL1 24-110 (Homo sapiens, UniProt Q6UW32); chain GAPVAPMTPYLMLCQPHKRCGDKFYDPLQHCCYDDAVVPLARTQTCGNCTFRVCFEQCCPWTFMVKLINQNCDSARTSDDRLCRSVS
# B6: EnvC 278-419 V353A (Escherichia coli, UniProt P37690); chain STESEKSLMSRTGGLGAPRGQAFWPVRGPTLHRYGEQLQGELRWKGMVIGASEGTEVKAIADGRVILADWLQGYGLAVVVEHGKGDMSLYGYNQSALVSVGSQVRAGQPIALVGSSGGQGRPSLYFEIRRQGQAVNPQPWLGR
# B7: SNRPB2 (Homo sapiens, UniProt P08579); chain MDIRPNHTIYINNMNDKIKKEELKRSLYALFSQFGHVVDIVALKTMKMRGQAFVIFKELGSSTNALRQLQGFPFYGKPMRIQYAKTDSDIISKMRGTFADKEKKKEKKKAKTVEQTATTTNKKPGQGTPNSANTQGNSTPNPQVPDYPPNYILFLNNLPEETNEMMLSMLFNQFPGFKEVRLVPGRHDIAFVEFENDGQAGAARDALQGFKITPSHAMKITYAKK
# B8: CER1 Fc fusion 18-267 R82G/C206A (Homo sapiens, UniProt O95813); sequence looked up; chain TRHQDGRQNQSSLSPVLLPRNQRELPTGNHEEAEEKPDLFVAVPHLVATSPAGEGQRQREKMLSGFGRFWKKPEREMHPSRDSDSEPFPPGTQSLIQPIDGMKMEKSPLREEAKKFWHHFMFRKTPASQGVILPIKSHEVHWETCRTVPFSQTITHEGCEKVVVQNNLCFGKCGSVHFPGAAQHSHTSASHCLPAKFTTMHLPLNCTELSSVIKVVMLVEECQCKVKTEHEDGHILHAGSQDSFIPGVSA
# B9: CYBA (Homo sapiens, UniProt P13498); chain MGQIEWAMWANEQALASGLILITGGIVATAGRFTQWYFGAYSIVAGVFVCLLEYPRGKRKKGSTMERWGQKYMTAVVKLFGPFTRNYYVRAVLHLLLSVPAGFLLATILGTACLAIASGIYLLAAVRGEQWTPIEPKPRERPQIGGTIKQPPSNPPPRPPAEARKKPSEEEAAVAAGGPPGGPQVNPIPVTDEVV
# Chain of UniProt P0ABH9 (whole entry, looked up): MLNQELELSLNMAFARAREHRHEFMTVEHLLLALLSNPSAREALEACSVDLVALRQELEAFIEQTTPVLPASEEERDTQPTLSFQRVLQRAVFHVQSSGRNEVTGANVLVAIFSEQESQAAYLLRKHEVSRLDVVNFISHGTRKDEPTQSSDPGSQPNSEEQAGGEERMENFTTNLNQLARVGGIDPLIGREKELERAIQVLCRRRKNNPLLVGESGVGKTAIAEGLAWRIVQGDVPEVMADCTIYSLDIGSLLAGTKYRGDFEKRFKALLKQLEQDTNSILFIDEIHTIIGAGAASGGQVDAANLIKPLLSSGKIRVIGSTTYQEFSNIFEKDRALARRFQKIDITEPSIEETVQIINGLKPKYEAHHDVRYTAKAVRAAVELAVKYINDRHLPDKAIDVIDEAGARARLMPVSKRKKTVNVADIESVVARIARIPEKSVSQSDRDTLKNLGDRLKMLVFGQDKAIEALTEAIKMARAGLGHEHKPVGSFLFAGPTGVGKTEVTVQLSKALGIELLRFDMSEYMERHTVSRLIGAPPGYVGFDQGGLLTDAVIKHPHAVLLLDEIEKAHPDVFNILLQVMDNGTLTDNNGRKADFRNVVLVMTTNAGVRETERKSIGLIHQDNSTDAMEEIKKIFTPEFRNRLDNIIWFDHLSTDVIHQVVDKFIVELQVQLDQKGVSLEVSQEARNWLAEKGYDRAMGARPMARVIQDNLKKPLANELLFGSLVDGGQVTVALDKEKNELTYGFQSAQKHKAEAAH
# Chain of UniProt P55085 (whole entry, looked up): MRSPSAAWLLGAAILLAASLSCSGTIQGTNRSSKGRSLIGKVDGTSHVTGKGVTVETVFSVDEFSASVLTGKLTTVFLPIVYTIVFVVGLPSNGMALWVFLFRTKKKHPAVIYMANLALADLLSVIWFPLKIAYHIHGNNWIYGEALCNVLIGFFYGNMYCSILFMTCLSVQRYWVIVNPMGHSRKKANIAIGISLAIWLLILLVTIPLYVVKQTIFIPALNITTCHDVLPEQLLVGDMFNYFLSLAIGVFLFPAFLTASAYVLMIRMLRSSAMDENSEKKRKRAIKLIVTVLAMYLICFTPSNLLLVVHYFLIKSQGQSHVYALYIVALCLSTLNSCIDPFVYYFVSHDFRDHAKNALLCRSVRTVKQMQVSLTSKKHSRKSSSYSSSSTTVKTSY
# Chain of UniProt P08246 (whole entry, looked up): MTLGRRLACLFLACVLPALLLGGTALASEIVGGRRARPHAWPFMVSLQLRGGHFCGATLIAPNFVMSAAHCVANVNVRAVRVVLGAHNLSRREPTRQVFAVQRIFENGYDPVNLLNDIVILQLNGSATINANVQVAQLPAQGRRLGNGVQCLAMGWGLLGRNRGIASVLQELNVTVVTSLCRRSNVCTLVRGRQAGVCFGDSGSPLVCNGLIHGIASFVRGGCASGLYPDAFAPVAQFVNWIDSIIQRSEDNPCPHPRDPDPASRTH
# Chain of UniProt P00167 (whole entry, unmodified, looked up): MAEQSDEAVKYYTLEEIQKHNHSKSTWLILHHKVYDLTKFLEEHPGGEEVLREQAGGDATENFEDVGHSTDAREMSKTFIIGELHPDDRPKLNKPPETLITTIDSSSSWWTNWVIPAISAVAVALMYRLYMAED
# Chain of UniProt Q61851 (whole entry, looked up): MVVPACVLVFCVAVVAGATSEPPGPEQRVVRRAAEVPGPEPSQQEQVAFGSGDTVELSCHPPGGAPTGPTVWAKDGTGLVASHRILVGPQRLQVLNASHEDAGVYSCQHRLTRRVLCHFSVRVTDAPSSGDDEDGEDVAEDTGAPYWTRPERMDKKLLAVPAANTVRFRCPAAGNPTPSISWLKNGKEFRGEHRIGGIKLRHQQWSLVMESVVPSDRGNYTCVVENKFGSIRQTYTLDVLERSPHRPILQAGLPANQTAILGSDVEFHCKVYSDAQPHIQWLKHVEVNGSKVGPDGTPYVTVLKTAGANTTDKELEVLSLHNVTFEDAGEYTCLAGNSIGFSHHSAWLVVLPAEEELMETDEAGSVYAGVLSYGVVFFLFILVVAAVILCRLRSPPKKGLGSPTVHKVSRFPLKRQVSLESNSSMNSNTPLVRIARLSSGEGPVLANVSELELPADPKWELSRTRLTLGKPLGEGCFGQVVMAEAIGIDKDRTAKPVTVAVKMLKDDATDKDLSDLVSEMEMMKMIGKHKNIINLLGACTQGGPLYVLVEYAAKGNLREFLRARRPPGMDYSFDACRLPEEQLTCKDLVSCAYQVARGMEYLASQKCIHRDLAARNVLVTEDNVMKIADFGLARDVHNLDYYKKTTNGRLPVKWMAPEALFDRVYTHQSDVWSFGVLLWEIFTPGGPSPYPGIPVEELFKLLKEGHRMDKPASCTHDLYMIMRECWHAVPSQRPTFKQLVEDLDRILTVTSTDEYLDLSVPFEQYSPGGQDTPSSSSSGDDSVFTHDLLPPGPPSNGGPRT
# Chain of UniProt P08684 (whole entry, unmodified, looked up): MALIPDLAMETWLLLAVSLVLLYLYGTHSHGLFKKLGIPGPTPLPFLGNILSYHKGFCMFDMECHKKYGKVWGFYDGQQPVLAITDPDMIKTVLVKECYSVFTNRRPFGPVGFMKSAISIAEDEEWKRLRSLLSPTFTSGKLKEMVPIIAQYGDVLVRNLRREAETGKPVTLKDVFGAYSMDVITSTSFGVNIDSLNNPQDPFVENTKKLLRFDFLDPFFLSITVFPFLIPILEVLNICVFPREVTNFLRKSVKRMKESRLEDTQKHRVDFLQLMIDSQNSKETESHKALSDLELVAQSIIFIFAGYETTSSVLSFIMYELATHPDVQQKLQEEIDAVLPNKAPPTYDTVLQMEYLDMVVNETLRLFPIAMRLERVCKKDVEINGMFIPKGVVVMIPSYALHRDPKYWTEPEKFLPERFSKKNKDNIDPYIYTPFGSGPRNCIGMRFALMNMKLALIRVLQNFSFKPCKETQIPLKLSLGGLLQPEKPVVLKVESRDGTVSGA
# Chain of UniProt Q9H665 (whole entry, looked up): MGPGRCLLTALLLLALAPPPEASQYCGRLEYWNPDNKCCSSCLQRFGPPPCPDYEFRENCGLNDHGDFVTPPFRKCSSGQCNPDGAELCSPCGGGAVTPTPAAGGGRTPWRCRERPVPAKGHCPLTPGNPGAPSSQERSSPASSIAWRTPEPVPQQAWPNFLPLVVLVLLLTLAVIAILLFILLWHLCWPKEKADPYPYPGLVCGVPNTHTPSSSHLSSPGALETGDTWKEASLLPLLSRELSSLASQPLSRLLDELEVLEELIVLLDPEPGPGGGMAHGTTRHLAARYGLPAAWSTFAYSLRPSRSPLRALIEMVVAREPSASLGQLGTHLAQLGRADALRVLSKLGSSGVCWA
# Chain of UniProt P00004 (whole entry, looked up): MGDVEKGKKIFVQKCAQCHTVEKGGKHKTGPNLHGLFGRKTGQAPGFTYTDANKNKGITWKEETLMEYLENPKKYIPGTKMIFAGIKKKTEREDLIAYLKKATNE
Molecule,partner,test,test system,setting,scale,quantity,result
B1,"XCR1 (Homo sapiens, UniProt P46094)",IP3 accumulation,COS-7,,"baseline: XCL1 CC3, higher = less potent",potency decrease,90 fold
CCL19 (UniProt Q99731),"ACKR4 (Homo sapiens, UniProt Q9NPB9)","β-arrestin2 recruitment, agonist, EFC",CHO-CCX-CKR,together with: CXCL13 1000 nM,,pEC50,9.4
"H[dS]QGTFTSDYSKYLDSCRAQDFVCWLMNTKRNRNNIA-NH2 (oxyntomodulin analog R17C/Q24C, D-Ser2, C-terminal amide; cysteine pairing not given here; D-Ser2, C-terminal amide)","GCGR (Homo sapiens, UniProt P47871)","CRE luciferase reporter, agonist","peptide, HEK293",,,EC50,30 nM
Sptan1 (Mus musculus),"Kifap3 209-384 (Mus musculus, UniProt P70188)",two-hybrid,,,higher = stronger interaction,β-galactosidase activity,234 U
B2 (Ric8b 1-483 R75E),"GNAL 1-381 (Homo sapiens, UniProt P38405)",luminescence,RIC-8B knockout HEK293T,,"baseline: wild-type Ric-8B, higher = more folding",sensor folding,2%
"ARTKFTARKS (Histone H3.1 2-11 Q5F (Homo sapiens, UniProt P68431); sequence looked up)",KDM5A,"competition with labeled peptide, fluorescence polarisation",peptide,together with: H3 peptide,,Ki,980 nM
"POLB (Homo sapiens, UniProt P06746)",MSH2/MSH3,Polβ-catalysed CAG hairpin retention,,together with: MutSβ 1 pmol,"baseline: same reaction without MutSβ, higher = more retention",hairpin retention,3 fold
B3 (addA D1172A),"addB D961A (Bacillus subtilis, UniProt P23477)",AUC,,"sedimentation equilibrium, no DNA",,molecule per partner,1
PAX6 fragment (Homo sapiens),"SOX2 1-117 (Homo sapiens, UniProt P48431)",EET assay,,together with: DNA2 1.25 µM,"baseline: Sox2 alone, higher = more cleavage",DNA cleavage,82.5%
"A2M methylamine-activated (Homo sapiens, UniProt P01023)","Lrp1 (Rattus norvegicus, UniProt G3V928)",MCP-1/CCL2 mRNA,rat Schwann cells,"50 nM, 6 hr","baseline: vehicle, higher = more mRNA",mRNA level,13.4 fold
"CYB5A holo (Homo sapiens, UniProt P00167)","CYP3A4 N-terminally truncated K96A (Homo sapiens, UniProt P08684)",testosterone 6β-hydroxylation,,together with: CPR,"baseline: without b5, higher = greater b5 stimulation",catalytic efficiency ratio,1.3
"PPIA (Homo sapiens, UniProt P62937)","CRK (Homo sapiens, UniProt P46108-1)",FRET,HeLa,"24 h, in cells",,FRET efficiency,70 ± 3.3%
"TMC1 (Homo sapiens, UniProt Q8TDI8)","KCNQ1 (Homo sapiens, UniProt P51787)","surface biotinylation, western blot",CHO,in cells,higher = more surface TMC1,surface expression,> 10 fold
B4 (mutL R531A),"mutH 1-229 (Escherichia coli, UniProt P06722)",MutH cleavage of heteroduplex DNA,,,"baseline: MutL wild type, higher = more activity",MutL activity,91%
YASKGKKRNPGLKIPK (MAP2K6 residues 4-17 (Homo sapiens)),"MAPK8, pT183, pY185 (Homo sapiens, UniProt P45983)","kinase activity, inhibitor, competitive kinase inhibition assay",peptide,together with: ATP 1 mM,,IC50,95 µM
"CYCS (horse, UniProt P00004)","CcP, two covalent hemes (Shewanella oneidensis)",steady-state kinetics,,"oxidized, tag-free, together with: electron donor 4 µM",,peroxide turnover rate k1,0.28 s⁻¹
"ELANE (Homo sapiens, UniProt P08246)","F2RL1 (Homo sapiens, UniProt P55085)",impedance response,16HBE14o−,,,EC50,300 nM
B5 (IGFL1 24-110),"IGFLR1 23-159 (Homo sapiens, UniProt Q9H665)",SPR,,"pH 7.4, 25 °C, NaCl 0.15 M",,koff,0.000128 s⁻¹
"MR1/B2M empty, chimera (Homo sapiens/Bos taurus)",TAPBPL fragment del24-36,19F CPMG NMR,,"with TAPBPR mutant, together with: 19F-DCF 500 µM",,apparent T2,148 ms
cyp102A1 flavin reductase domain (Bacillus megaterium),"CYP3A4 del3-12 (Homo sapiens, UniProt P08684)",BMR-dependent reduction,proteoliposomes,together with: ANF,,slow phase rate constant,0.0027 s⁻¹
"clpP mature, wild type (Escherichia coli, UniProt P0A6G7)","clpA (Escherichia coli, UniProt P0ABH9)","ATPase stimulation, activator",,,,Kapp,20 nM
Dnmt3l fragment F297A (Mus musculus),Dnmt3a fragment (Mus musculus),DNA methylation activity,,,"baseline: wild-type complex, higher = greater loss of activity",methylation activity reduction,50%
"Cacng2 (Rattus norvegicus, UniProt Q71RJ2)","Gria2 mature (Rattus norvegicus, UniProt P19491)",kainate vs glutamate steady-state currents,"oocytes, proteoliposomes",,higher = larger kainate response,current ratio,0.5
"FKBP1A (Homo sapiens, UniProt P62942)","RYR1, pS2843 (UniProt P11716)",single-channel gating,planar lipid bilayers,,,open time,1.6 ms
"ARTKRTARKS (Histone H3.1 2-11 Q5R (Homo sapiens, UniProt P68431); sequence looked up)",KDM5A,"competition with labeled peptide, fluorescence polarisation",peptide,together with: H3 peptide,,Ki,620 nM
B6 (EnvC 278-419 V353A),AmiB (Escherichia coli),"dye release from labelled sacculi, activator",,1 µM,"baseline: wild-type, higher = more activation",AmiB activation,10%
B7 (SNRPB2),"SNRPA1 1-180 (Homo sapiens, UniProt P09661)",ITC,,"22 °C, apparent, no RNA",,apparent ΔH,-85 ± 2 kcal/mol
B8,"INHBB mature (Homo sapiens, UniProt P09529)","SMAD3 luciferase reporter, inhibitor","Fc fusion, A-204",together with: Activin B 0.8 nM,,IC50,0.0037 µM
"FGF2 (Homo sapiens, UniProt P09038)","FGFR3 isoform IIIc (unknown, UniProt Q61851)","cell proliferation, MTT",BaF3-FGFR3c,"20 nM, 48 h, together with: heparosan 4.9 µg/mL","baseline: FGF 1 with heparin, higher = more proliferation",cell proliferation,8%
B9 (CYBA),"Cybb (Mus musculus, UniProt Q61093)",Western blot,BMDM,,higher = more protein,increase in protein,39%
EPB41 fragment (Homo sapiens),SLC9A1 residues 506-575 (Rattus norvegicus),resonant mirror,,,,molecule per partner,1

# Excerpt of the above:
Molecule,partner,test,test system,setting,scale,quantity,result
B8,"INHBB mature (Homo sapiens, UniProt P09529)","SMAD3 luciferase reporter, inhibitor","Fc fusion, A-204",together with: Activin B 0.8 nM,,IC50,0.0037 µM
"FGF2 (Homo sapiens, UniProt P09038)","FGFR3 isoform IIIc (unknown, UniProt Q61851)","cell proliferation, MTT",BaF3-FGFR3c,"20 nM, 48 h, together with: heparosan 4.9 µg/mL","baseline: FGF 1 with heparin, higher = more proliferation",cell proliferation,8%
B9 (CYBA),"Cybb (Mus musculus, UniProt Q61093)",Western blot,BMDM,,higher = more protein,increase in protein,39%
EPB41 fragment (Homo sapiens),SLC9A1 residues 506-575 (Rattus norvegicus),resonant mirror,,,,molecule per partner,1
